Measurements collected from several papers.
Numbered parts are unrelated; each lists some results of a single study.

Set 1
Target: Histone acetyltransferase KAT6A, winged helix 1, GST fusion (KAT6A, Homo sapiens, UniProt Q92794, residues 1-85)
Method: protein binding microarray
Form: double-stranded DNA, one strand shown
Matrix: in vitro
Concentration: not given
Notes: 8-mer, flanks averaged, mean of 2 arrays, mostly near background
Baseline: not given
Reading: higher = stronger binding
Residues (chain): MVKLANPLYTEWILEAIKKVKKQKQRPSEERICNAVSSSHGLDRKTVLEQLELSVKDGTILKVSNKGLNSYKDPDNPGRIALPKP
Strand | E-score
GGTCCAAA | -0.147
CCAGGGCG | 0.165
TCCGCCGA | 0.391

Set 2
Target: Prothrombin, mature alpha-thrombin (F2, Homo sapiens, UniProt P00734)
Method: aptamer microarray, sandwich
Form: DNA with 2'F-ANA
Matrix: in vitro
Concentration: 200 nM
Notes: whole 15-mer aptamer, many near background
Together with: Cy3 exosite-II aptamer, 400 nM
Reading: higher = stronger binding
Strand | mean fluorescence intensity [a.u.]
GGTTGGTGTGGTTGG (2'F-ANA at 1 2 5 7 8 11 12 13 15) | 82.9
GGTTGGTGTGGTTGG (2'F-ANA at 1 2 3 4 5 7 9 11 12) | 95.8
GGTTGGTGTGGTTGG (2'F-ANA at 1 4 5 6 8 10 12) | 50.3
GGTTGGTGTGGTTGG (2'F-ANA at 1 9 10 11 15) | 53.3

Set 3
Target: Ras GTPase-activating protein-binding protein 1, C-terminal RGG region (G3BP1, Homo sapiens, UniProt Q13283)
UniProt Q13283, sequence (whole entry, looked up): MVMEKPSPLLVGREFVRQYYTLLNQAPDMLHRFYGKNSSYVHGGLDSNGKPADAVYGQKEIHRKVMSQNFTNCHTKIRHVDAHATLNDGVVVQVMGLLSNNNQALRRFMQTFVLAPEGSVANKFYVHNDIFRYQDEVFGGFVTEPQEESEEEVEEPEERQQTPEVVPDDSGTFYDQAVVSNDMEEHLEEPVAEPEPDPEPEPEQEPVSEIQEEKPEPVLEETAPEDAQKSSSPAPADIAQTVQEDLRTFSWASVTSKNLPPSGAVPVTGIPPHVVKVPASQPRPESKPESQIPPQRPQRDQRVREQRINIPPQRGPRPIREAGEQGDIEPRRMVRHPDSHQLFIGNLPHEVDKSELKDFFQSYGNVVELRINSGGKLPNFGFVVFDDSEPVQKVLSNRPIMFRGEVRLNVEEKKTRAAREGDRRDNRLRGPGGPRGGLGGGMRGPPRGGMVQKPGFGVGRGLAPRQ
Method: RNA Bind-n-Seq
Form: RNA
Matrix: in vitro
Concentration: 1 µM
Notes: whole 134-nt RNA, ends assumed
Together with: 150 mM KCl
Baseline: input library
Reading: higher = stronger binding
Strand | log2 enrichment
GGGAGUUCUACAGUCCGACGAUCCCUGUGCUACACAUCGUAUGUACCGAAUCAAAUUUUUUUAAACCCCCAAAUUUUUUUAAAAAAGUAUUAUGUUACGCCGUUCGGAUCUGCUGGAAUUCUCGGGUGUCAAGG | -1.11
GGGAGUUCUACAGUCCGACGAUCUCCUCAAGUCCUGUGCUACACAUCGUAUGUACCGAAUCGGAAAGGUGGAGGAAAGUAUUAUGUUACGCCGUUCGGAUCUGCACUUCCAGCUGGAAUUCUCGGGUGUCAAGG | -1.26
GGGAGUUCUACAGUCCGACGAUCCUCAAGUCCUGUGCUACACAUCGUAUGUACCGAAUCGGAAAGGUGGAAAAAGGAAAGUAUUAUGUUACGCCGUUCGGAUCUGCACUUCCAUGGAAUUCUCGGGUGUCAAGG | -1.35
GGGAGUUCUACAGUCCGACGAUCUAACUUUAGAGGAGGAUCUGAUGGAUAUGGCAGUGGACGUGGAUUUGGGGAUGGCUAUAAUGGGUAUGGAGUAGGACCUGGAGGUGGCAAUGGAAUUCUCGGGUGUCAAGG | -0.409

Further values, each from its own experiment
Molecule | target | test | system | setting | scale | quantity | result
PhoQ, residues 284 288 289 292 302 303 QWQEDG | PhoP, residues 12 14 15 18 19 LYHSL (Escherichia coli, UniProt P23836) | Sort-seq, refers to: YFP reporter | E. coli | PhoQ-PhoP variant library, together with: 10 µM Mg2+ | baseline: high Mg2+ state, higher = stronger signaling | fold induction | 17.4

Some of these lines once more (further values, each from its own experiment):
Molecule | target | test | system | setting | scale | quantity | result
PhoQ, residues 284 288 289 292 302 303 QWQEDG | PhoP, residues 12 14 15 18 19 LYHSL (Escherichia coli, UniProt P23836) | Sort-seq, refers to: YFP reporter | E. coli | PhoQ-PhoP variant library, together with: 10 µM Mg2+ | baseline: high Mg2+ state, higher = stronger signaling | fold induction | 17.4
